# Assay results collected from several papers.
# Each numbered part is a random draw from the data of one study; scales do not carry over between parts. Positions count from the first letter of the parent shown.

# Set 1
# Target: RING finger protein unkempt homolog, zinc fingers 1-6, GST-SBP tag (UNK, Homo sapiens, UniProt Q9C0B0, residues 30-357)
# Technique: RNA Bind-n-Seq
# Form: RNA
# Matrix: in vitro
# Concentration: not given
# Notes: RNA with constant flanks, human and mouse sites, ends assumed
# Relative to: input RNA pool
# Direction: higher = stronger binding
# All sequences stand within: GGGAGUUCUACAGUCCGACGAUC … CAACAGAGGAUUGAGCAUCA
# Target sequence (chain): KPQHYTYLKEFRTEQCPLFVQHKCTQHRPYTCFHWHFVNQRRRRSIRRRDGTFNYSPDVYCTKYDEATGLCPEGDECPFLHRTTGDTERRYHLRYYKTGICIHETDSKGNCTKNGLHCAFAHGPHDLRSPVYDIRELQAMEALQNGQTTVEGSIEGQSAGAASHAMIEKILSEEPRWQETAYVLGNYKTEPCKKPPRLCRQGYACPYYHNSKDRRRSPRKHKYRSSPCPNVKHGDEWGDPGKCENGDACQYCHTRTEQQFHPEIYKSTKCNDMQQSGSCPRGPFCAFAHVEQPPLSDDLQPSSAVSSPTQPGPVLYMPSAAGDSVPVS
Oligonucleotide,bound/input enrichment [ratio]
AUAAUGAAUAUUAAAUGAUUUUUCUUCAGUCACAGUGAGAGCAUCUUGCUUUGUGGUUGAAAUAGGUAGUGUAUGUCAGUCUUUGCUUUAGGCUGUUUCUCAUCUAAGUGUUUGAAUUAA,8.39
AUGGAACAUUUCGAUGCGUCACUCAGUACCUAUUUCAAGGCCUUCCUGGGCCCCCGAGAUACAAGAGUCAAAGGAUGGUUCCUCCUGGACAAUUACAUCCCUACGUUUGUCUGUUCUGUU,0.0841
GGGCUCCGUGGUAAUGAAUUCUUCUGUGAGGUGGAUGAAGACUACAUCCAGGACAAAUUUAAUCUUACUGGACUCAAUGAGCAGGUGCCUCACUAUCGACAAGCUCUGGACAUGAUCUUA,0.191
GAGAAGAGGAAUGCCAUGAACAGGGCUUUCUGGAGGGAGUUGGUGGAAUGCUUCCAAAAGAUAUCCAAAGACUCGGACUGCCGGGCUGUUGUAGUCUCCGGUGCAGGAAAGAUGUUCACU,0.478
ACUGCCAGGCUGUUUCAGCCAGGAAGGCCAAAAUCAAGAGUGAGAUGUAGAAAGUUGUAAAAUAGAAAAAGUGGAGUUGGUGAAUCGGUUGUUCUUUCCUCACAUUUGGAUGAUUGUCAU,1.96
UCCAGAAGCACUGCGUAUGAAGAUUAUUACUACCACCCUCCUCCUCGCAUGCCACCUCCAAUUAGAGGUCGGGGUCGUGGUGGGGGGAGAGGUGGAUAUGGCUACCCUCCAGAUUACUAC,0.107
GAUACUGGUAAACUGACUGGCGGAUCAUUUACCAUGAAAUACCAUGAUAUGCCUGACGUUAUAGAUUUCCUAGUCUUGAGACAACAAUUUGAUGAUGCAAAAUACAGGCGAUGGAAUAUA,0.441
GGAGAUGGACUUUUUGAUGAAGAAAUCCGAAGUGUCUUUACCAAUCCGGGUGUUUUGGCUGUCUUGGGUUUUGACAAAACCUGCCUGGUUCCCUUUGGGGGAUCCGAAUGAGCGAUCUCA,0.141

# Set 2
# Target: Interferon regulatory factor 3, full length, phosphomimetic (IRF3, Homo sapiens, UniProt Q14653, residues 1-427, S386D/S396D/S398D/S402D/T404D/S405D)
# Technique: protein-binding microarray
# Form: double-stranded DNA, one strand shown
# Matrix: in vitro
# Concentration: 2540 nM top
# Notes: 60-bp whole probe
# With: salmon DNA 0.4 mg/ml
# Relative to: random background probes
# Direction: higher = stronger binding
# All sequences stand within: GCCTAGCAC … GTCTTGATTCGCTTGACGCTGCTG
# Residues (chain): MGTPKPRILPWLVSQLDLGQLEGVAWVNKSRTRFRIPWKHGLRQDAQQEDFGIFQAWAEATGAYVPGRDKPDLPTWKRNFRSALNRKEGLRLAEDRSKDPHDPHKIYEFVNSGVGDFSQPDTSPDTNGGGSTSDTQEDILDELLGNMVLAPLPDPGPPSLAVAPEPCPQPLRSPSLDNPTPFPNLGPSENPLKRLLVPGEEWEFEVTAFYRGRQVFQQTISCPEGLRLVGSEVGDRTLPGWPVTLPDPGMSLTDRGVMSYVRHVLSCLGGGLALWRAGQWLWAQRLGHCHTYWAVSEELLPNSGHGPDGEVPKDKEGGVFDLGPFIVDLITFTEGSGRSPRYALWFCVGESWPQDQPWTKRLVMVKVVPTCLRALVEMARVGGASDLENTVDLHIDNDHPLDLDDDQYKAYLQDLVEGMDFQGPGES
Oligonucleotide,fitted relative affinity [z-score]
GACGGACTGCTTCTTCTGACGTGCTAG,-0.29
TTAGATATCAGAGTGGATTAGTGCTAG,0.142
TTAGGTTTCGATTTCGGTTAGTGCTAG,8.41
CAAACAGAGACCCGGCAAGTGTGCTAG,0.824
AGGCATGTGGGTTCCATCATGTGCTAG,-0.508
CAAAACATCATTGTCATATAGTGCTAG,0.796
TCAAGGTTCAAGTTTACCACTGTGCTA,-0.367
GACGGTATCGGACTGGGGATGTGCTAG,1.43
GACGTTATCAGTCTCGAGACGTGCTAG,1.64
GACGGATTCGACTATCGGGACGTGCTA,0.579
GACGGACTGCTTTGCCTGACGTGCTAG,-0.581
GACGGACTGCTTGTCCTGACGTGCTAG,-0.395
TTAGGTATCGGTATCGGCTAGTGCTAG,4.17
TCAGGTCTGGGTATTTTACTGTGCTAG,-0.263
GTGAATATATGTATATATGTGTGCTAG,-0.0273
GACGATTTTAGTATCGAGACGTGCTAG,1.17
GACGGTTTCTGACTGGGGACGTGCTAG,2.33
GACGGTCTCCTTTTCCTGTCGTGCTAG,5.24
AACTGCATCCCAGGAGCTGGGTGCTAG,-0.396

# Set 3
# Target: RNA binding protein fox-1 homolog 2, RRM domain, GST-SBP tag (RBFOX2, Homo sapiens, UniProt O43251-10, residues 100-194)
# Technique: RNA Bind-n-Seq
# Form: RNA
# Matrix: in vitro
# Concentration: 365 nM
# Notes: natural RNA segment, single round, ends assumed
# Relative to: no-protein control
# Direction: higher = stronger binding
# All sequences stand within: GGGAGUUCUACAGUCCGACGAUC … UGGAAUUCUCGGGUGCCAA
# Residues (chain): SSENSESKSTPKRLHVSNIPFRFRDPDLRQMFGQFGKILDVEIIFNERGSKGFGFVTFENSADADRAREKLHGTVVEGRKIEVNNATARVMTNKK
Oligonucleotide,RBNS enrichment (R)
CUGACUUAACGUUCUAUAAAUGAAUGUGCUGAAGCAAAGUGCCCAUGGUGGCGGCGAAGAAGAGAAAGAUGUGUUUUGUUUUGGACUCUCUGUGGUCCCUUCCAAUGCUG,0.49
AUGGUCAAGUCCUUUUGUUGCUCUCAUCCCCUCCCCCUGCCCCACCAUGUGCCCCUGGCUGCCCUUAUCCGCCCAAACCAAAGGCUGAGAGGGGGAGGCCUGUGUCCUUC,0.525
CCUCUGCCUUCUUUCCUGGAACUCAGGGUGUGGGGACUGAGCCUGUAGGGGACAGCAUGCCGUCUUGCUGUGGCCACUCCCAAGUGUGCCCUCUUCCCUCUUUACACAUC,12.3
UUUUAAAAAGUAAGGUUUAAAGUCACAGCAGAUAGGAGAUUAAUGUUUUAUUGCCACAGAAAUUCUCUUUAAGAUCUGAGCUCUCCUGGUAAGAGUCUUUAUUAAAGUUU,0.746
AAGUUUGGACGGUACUAAAGUCACCUCUGACUUCCUUCUGGGUUCCCCUACUACAGUUCUUGCUUCCAUGCAAGGUGAACCUGAGGGGAGGAAGGCGUGGCUCUCUGAAA,0.297
UGAUGGGACCAACUUGUAAAGUAUGAGCCUUAAAUAAAUCUCCAUGCUGAAAAAUGUGUUCUAAUGCAACACAAAAACAUGAAGUGACUGCCCAGAGGUAGAGUUAGUGU,0.344
CUUCGUUGUAAUGGUUUUGCUGUAAAAAAUGUUUCCAACUCCGCUGAAAUGUUGCUGAAAAGCAUGGUGCUGGUAACAGUUCAACAAUCCGUGGCUGCUCAUUCUUGCCU,2.33
UUAAGUUGAGGAAGAACUGUCUCCUCUUCCACCUUUCUACAGAAUGCCUCUUCUUUACCUCCCGCCUCUAUGGGGAUGACUUUUGAGGCCCCACCUGGGUCAAGGGUUCA,0.278

# Set 4
# Target: ABI1, truncated, D143A, DHFR fusion (Arabidopsis thaliana)
# Technique: DHFR PCA, deep sequencing
# Matrix: yeast
# Notes: methotrexate growth selection, single substitutions
# With: (+)-ABA 0.0091 µM
# Relative to: wild-type fitted maximum
# Direction: higher = stronger binding
# Starting sequence: PYL1, truncated, DHFR fusion (Arabidopsis thaliana); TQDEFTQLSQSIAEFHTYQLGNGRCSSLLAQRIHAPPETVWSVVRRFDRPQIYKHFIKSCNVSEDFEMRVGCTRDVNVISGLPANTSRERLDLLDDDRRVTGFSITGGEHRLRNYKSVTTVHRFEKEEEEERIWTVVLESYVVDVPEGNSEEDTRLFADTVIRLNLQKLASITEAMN; partner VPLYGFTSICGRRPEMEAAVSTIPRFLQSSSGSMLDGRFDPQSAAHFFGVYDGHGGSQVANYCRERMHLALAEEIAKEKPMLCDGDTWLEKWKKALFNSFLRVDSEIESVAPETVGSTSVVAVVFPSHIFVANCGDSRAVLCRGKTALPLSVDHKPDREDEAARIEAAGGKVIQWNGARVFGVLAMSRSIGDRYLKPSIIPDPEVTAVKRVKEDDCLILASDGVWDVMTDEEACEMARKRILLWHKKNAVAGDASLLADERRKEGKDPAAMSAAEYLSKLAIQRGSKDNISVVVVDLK
Substitution,relative binding score
V44A,-2.62%
F103I,-5.69%
S26K,-2.27%
N149Q,47.8%
A35C,2.52%
C25Q,5.2%
L169C,0.0236%
E128I,-8.53%
E38N,-0.237%
I162K,4.7%
R98L,7.8%
E130W,0.0605%
E151S,27.6%
E64P,53.5%
Q7K,24.1%
M68C,7.32%
F157A,1.49%

# Some of these lines once more (set 2):
Oligonucleotide,fitted relative affinity [z-score]
GACGGTCTCCTTTTCCTGTCGTGCTAG,5.24
TCAGGTCTGGGTATTTTACTGTGCTAG,-0.263
CAAACAGAGACCCGGCAAGTGTGCTAG,0.824
AACTGCATCCCAGGAGCTGGGTGCTAG,-0.396
TCAAGGTTCAAGTTTACCACTGTGCTA,-0.367
